Measured values gathered from unrelated publications.
Each line is one published result; not all experiments were run side by side. Values joined by “and” are separate records of one study, mostly repeats; a detail may differ. Numbers after ± are the reported error.
Gria1/Gria2: Glutamate receptor AMPA 1/2 (Gria1/Gria2, Rattus norvegicus, UniProt P19490+P19491)
CA12: Carbonic anhydrase 12 (CA12, Homo sapiens, UniProt O43570)
Sodium- and chloride-dependent glycine transporter 2: Sodium- and chloride-dependent glycine transporter 2 (Homo sapiens, UniProt Q9Y345)

`COC(=O)Cc1cc2c(cc1C(=O)c1ccccc1Br)OCO2`: “desensitization time constant” 4.9 ± 0.3 ms (Gria1/Gria2; glutamate-evoked current, whole-cell patch clamp; HEK-293T; concentration not given, weighted tau, 500 ms pulse, added: glutamate).
With `N#CSCCCCCCOc1ccc2c(-c3ccccc3)cc(=O)oc2c1` the selectivity ratio was greater than 794 (CA12; stopped-flow CO2 hydration; baseline: Ki CA I over Ki CA XII).
`O=C(N[C@@H](Cc1ccc(OCCCCC2CCNCC2)cc1)C(=O)O)c1nc2ccccc2o1.O=C(O)C(F)(F)F`: “fibrinogen binding MFI” 196000 a.u. (Integrin alpha-IIb/beta-3 (Homo sapiens, UniProt P05106+P08514); inhibitor, flow cytometry; washed platelets, human; 15 nM, 30 min, room temperature, added: ADP 20 µM, Alexa647-fibrinogen; higher = more binding).
`O[C@@H]1[C@@H](O)[C@H](F)C=C[C@H]1O` — result for “time to steady-state activity”: 30 to 60 min (Lysosomal acid glucosylceramidase (GBA1, Homo sapiens, UniProt P04062); covalent inhibitor, continuous progress curves; concentration not given, added: substrate).
`CC[C@H]1CN([C@@H](CC)c2ccc(C(F)(F)F)cc2)[C@H](CC)CN1c1nc(=O)n(C)c2ccc(C#N)nc12`: “lipid kinase activity” “inactive” (Diacylglycerol kinase eta (DGKH, Homo sapiens, UniProt Q86XP1); type II DGK; concentration not given).
For `COC(=O)[C@@]1(C)C=C(C(=O)Nc2cccc(C(=O)Nc3ccc(Nc4nccc(-c5cccnc5)n4)c(C)c3)c2)C(=O)CC1`, the remaining activity was 1.01 and 0.775 and 0.865 (Mitogen-activated protein kinase 14 (MAPK14, Homo sapiens, UniProt Q16539); enzyme activity, inhibitor; 4.938 µM, unit not given; baseline: vehicle).
The reaction rate of `CN(Cc1cc(C2CC2)on1)C(=O)c1cccc(-c2ccc3c(c2)CCO3)c1` is reported as 0.00306 a.u. (Acetyl-coenzyme A synthetase 2 (ACS2, Candida albicans, UniProt Q8NJN3); enzyme activity, inhibitor, coupled pyrophosphate; 1 µM; higher is more activity).
With `OC[C@@H]1[C@@H](O)[C@H](O)[C@@H](O)c2nccn21` the ΔG was -9.345 ± 0.0813 kcal/mol (bglA (Thermotoga maritima, UniProt Q08638); ITC; pH 6.8, 25 °C).
`O=C(O)Cc1cc2c(cc1C(=O)c1cccc(Cl)c1)OCO2` — result for “deactivation time constant”: 9.5 ± 0.5 ms (Gria1/Gria2; glutamate-evoked current, whole-cell patch clamp; HEK-293T; concentration not given, weighted tau, 1 ms pulse, added: glutamate).
`CC[C@H](C)[C@@H]1NC(=O)[C@H](C(C)C)NC(=O)[C@H](C(C)C)NC(=O)[C@H](CC(C)C)NC(=O)C[C@@H](C(=O)N[C@@H](Cc2c[nH]c3ccccc23)C(=O)N[C@@H](CC(N)=O)C(=O)N[C@@H](C)C(=O)N2CCC[C@H]2C(=O)NCC(=O)N[C@@H](Cc2c[nH]c3ccccc23)C(=O)N[C@@H](Cc2ccccc2)C(=O)O)NC(=O)[C@H](C)NC(=O)[C@H](CCC(N)=O)NC(=O)[C@H](C(C)C)NC1=O` — result for “OD450 in LPS binding ELISA”: 0.535 a.u. and 0.563 a.u. and 0.549 a.u. and 0.521 a.u. (Toll-like receptor 4 (TLR4, Homo sapiens, UniProt O00206); antagonist, ELISA; 1 µg/mL, added: LPS; baseline: DMSO control, lower means stronger antagonism).
`CC(C)[C@@H]1NC(=O)[C@H](Cc2ccccc2)NC(=O)CSC[C@@H](C(N)=O)NC(=O)[C@H](CCC(=O)O)NC(=O)[C@H](CO)NC(=O)[C@H](Cc2c[nH]c3ccccc23)NC(=O)[C@H](C(C)C)NC(=O)[C@H](C(C)C)NC(=O)[C@H](Cc2ccc(O)cc2)NC(=O)[C@H](CC(=O)O)NC(=O)[C@H](Cc2c[nH]c3ccccc23)NC(=O)[C@H](Cc2ccc(O)cc2)NC(=O)[C@H](Cc2c[nH]c3ccccc23)NC(=O)[C@H](CCC(=O)O)NC1=O` has a remaining activity of 52.3% (Interleukin-1 receptor-like 2 (IL1RL2, Homo sapiens, UniProt Q9HB29); IL-8 release, antagonist; A-431; 4 µM, 18 h, added: IL-36 10 ng/mL; baseline: untreated).
`CCCCCCCCCCCCC/C=C/C=O`: “isoTOP-ABPP competition ratio” 0.95 (DNA polymerase delta subunit 2 (Homo sapiens, UniProt P49005); competitive isoTOP-ABPP, refers to: POLD2 cysteine peptide; Ramos soluble proteome; 100 µM, added: iodoacetamide probe; baseline: DMSO over compound-treated, higher = stronger cysteine blockade).
For `N=C(N)NCCS(=O)(=O)O`, the fraction bound was 0 (Sodium- and chloride-dependent taurine transporter (SLC6A6, Homo sapiens, UniProt P31641, Y138A); binding, microscale thermophoresis; 43 nM, fitted curve; higher = more binding).
With `COc1cc2ncnc(Nc3ccc(Oc4ccc(C)cc4)cc3)c2cc1OC` the activity was 400 ± 80% (SMUG1 (Homo sapiens, UniProt Q53HV7); enzyme activity, activator, fluorescence; 20 µM; baseline: control).
With `CC(C)Oc1cc(Cl)ccc1CNc1cc(-c2ccccc2)nc2ncnn12` the cAMP luminescence was 1200 a.u. and 1110 a.u. and 1630 a.u. and 1660 a.u. (G-protein coupled receptor 3 (GPR3, Homo sapiens, UniProt P46089, L128A); cAMP level, cAMP GloSensor; 10 µM; higher = more cAMP).
`COc1ccc(C(OCCNCc2ccc(OC)c(O)c2)(c2ccc(OC)cc2)c2ccc(OC)cc2)cc1` — result for “remaining specific binding”: 78.9 ± 7.4% (Sodium- and chloride-dependent glycine transporter 2; MS binding competition; 10 µM).
For `COCCOc1cc2ncnc(Nc3cccc(-c4cn(CC(=O)Nc5ccc(S(N)(=O)=O)cc5)nn4)c3)c2cc1OCCOC`, the selectivity ratio was 1.49 (CA12; baseline: Ki hCA II over Ki hCA XII).
For `COC(=O)Cc1cc2c(cc1C(=O)c1ccccc1)OCO2`, “current amplitude after recovery” read 516 ± 36 pA (Gria1/Gria2; glutamate-evoked current, whole-cell patch clamp; HEK-293T; concentration not given, glutamate alone after washout, added: glutamate).
For `Cc1ccc(SCCOCCN2CC(C)OC(C)C2)cc1.Cl` (stereo not drawn), the relative translation was 107% (Trypanosoma cruzi; reporter mRNA translation, inhibitor, refers to: capped polyadenylated Renilla luciferase mRNA; cell-free extract; concentration not given; baseline: control RNA).
`CC(=O)c1cnc(NS(=O)(=O)c2ccc(C(F)(F)F)c(Cl)c2)nc1`: “oxidized product ratio” 0.35 and 0.378 and 0.341 and 0.361 (17-beta-hydroxysteroid dehydrogenase 13 (Homo sapiens, UniProt Q7Z5P4); enzyme activity; human hepatocytes, scramble siRNA, culture medium; 48 h; baseline: scramble siRNA control).
Under “inhibition after jump dilution”, `Cn1cc(-c2ccc(C(N)=O)cc2)cn1` is recorded as 100% (Uridine nucleoside ribohydrolase (Trichomonas vaginalis, UniProt A2FTT0); enzyme activity, 19F NMR; 200 µM, 1-fold dilution).
Under “isoTOP-ABPP competition ratio”, `CCCCCC(O)/C=C/C=O` (stereo not drawn) is recorded as 1.6 (Multifunctional methyltransferase subunit TRM112-like protein (TRMT112, Homo sapiens, UniProt Q9UI30); competitive isoTOP-ABPP, refers to: HSPC152 cysteine peptide; Ramos soluble proteome; 100 µM, added: iodoacetamide probe; baseline: DMSO over compound-treated, higher = stronger cysteine blockade).
Under “remaining specific binding”, `CC1=CC(C)=[N+]2C1=C(CCCCN1CCC(O)(c3ccccc3)CC1)c1c(C)cc(C)n1[B-]2(F)F` is recorded as 64.7 ± 1.4% (Sodium- and chloride-dependent glycine transporter 2; MS binding competition; 10 µM).
Under “SPR binding response”, `CCCCCCCCCCCCCCCc1cccc(OCC)c1C(=O)Nc1ccc(Cl)c(C(F)(F)F)c1` is recorded as 0.146 RU (Histone acetyltransferase KAT5 (KAT5, Homo sapiens, UniProt Q92993); SPR; 0.63 µM; higher = more binding).
For `CC(C)(C)n1ncc2c(=O)n(Cc3cccc(F)c3)c(NCc3ccc(F)cn3)nc21`, the selectivity ratio was greater than 2220 fold (High affinity cAMP-specific and IBMX-insensitive 3',5'-cyclic phosphodiesterase 8A (PDE8A, Homo sapiens, UniProt O60658); enzyme activity, inhibitor; baseline: IC50 PDE8A1 over PDE1C).
`CCOC(=O)c1ccc2c(c1)C1CC(C)(N2)c2c(C)nc3ccc(C(=O)OCC)cc3c21` (stereo not drawn) has a ΔTm of 0 °C (Glideosome-associated protein 50 (GAP50, Plasmodium falciparum, UniProt Q8I2X3); differential scanning fluorimetry).
`CC1CCc2c(sc(NC(=O)Cn3cnc([N+](=O)[O-])n3)c2C(N)=O)C1` (stereo not drawn) has a relative translation of 121% (Trypanosoma cruzi; reporter mRNA translation, inhibitor, refers to: capped polyadenylated Renilla luciferase mRNA; cell-free extract; concentration not given; baseline: control RNA).
`O=C1c2sc(-c3ccc(N4CCC(F)C4)nc3F)nc2CCN1c1cccnc1` (stereo not drawn) has an inhibition of -6% (Corticotropin-releasing factor receptor 1 (CRHR1, Homo sapiens, UniProt P34998); ligand displacement, radioligand; 1 µM).
`C=CC(=O)N1CCCC(n2c(=O)c3ncccc3n(Cc3ccc(Oc4ccccc4)cc3)c2=O)C1` (stereo not drawn) — result for “melting temperature shift”: -12.3 (WAS (Homo sapiens, UniProt P42768); thermal proteome profiling; unit not given; baseline: untreated control).
`C#CCOC(=O)[C@@]1(C)C=C(C(=O)OC(C)(C)C)C(=O)CC1` — result for “normalized kinase activity”: 0.845 (Mitogen-activated protein kinase 8 (MAPK8, Homo sapiens, UniProt P45983); enzyme activity, D-SENSOR; 14.81 µM, mean of replicates).

For quick reference, copied from above:
`O=C(O)Cc1cc2c(cc1C(=O)c1cccc(Cl)c1)OCO2` — result for “deactivation time constant”: 9.5 ± 0.5 ms (Gria1/Gria2; glutamate-evoked current, whole-cell patch clamp; HEK-293T; concentration not given, weighted tau, 1 ms pulse, added: glutamate).
`CC[C@H](C)[C@@H]1NC(=O)[C@H](C(C)C)NC(=O)[C@H](C(C)C)NC(=O)[C@H](CC(C)C)NC(=O)C[C@@H](C(=O)N[C@@H](Cc2c[nH]c3ccccc23)C(=O)N[C@@H](CC(N)=O)C(=O)N[C@@H](C)C(=O)N2CCC[C@H]2C(=O)NCC(=O)N[C@@H](Cc2c[nH]c3ccccc23)C(=O)N[C@@H](Cc2ccccc2)C(=O)O)NC(=O)[C@H](C)NC(=O)[C@H](CCC(N)=O)NC(=O)[C@H](C(C)C)NC1=O` — result for “OD450 in LPS binding ELISA”: 0.535 a.u. and 0.563 a.u. and 0.549 a.u. and 0.521 a.u. (Toll-like receptor 4 (TLR4, Homo sapiens, UniProt O00206); antagonist, ELISA; 1 µg/mL, added: LPS; baseline: DMSO control, lower means stronger antagonism).
`CC(C)[C@@H]1NC(=O)[C@H](Cc2ccccc2)NC(=O)CSC[C@@H](C(N)=O)NC(=O)[C@H](CCC(=O)O)NC(=O)[C@H](CO)NC(=O)[C@H](Cc2c[nH]c3ccccc23)NC(=O)[C@H](C(C)C)NC(=O)[C@H](C(C)C)NC(=O)[C@H](Cc2ccc(O)cc2)NC(=O)[C@H](CC(=O)O)NC(=O)[C@H](Cc2c[nH]c3ccccc23)NC(=O)[C@H](Cc2ccc(O)cc2)NC(=O)[C@H](Cc2c[nH]c3ccccc23)NC(=O)[C@H](CCC(=O)O)NC1=O` has a remaining activity of 52.3% (Interleukin-1 receptor-like 2 (IL1RL2, Homo sapiens, UniProt Q9HB29); IL-8 release, antagonist; A-431; 4 µM, 18 h, added: IL-36 10 ng/mL; baseline: untreated).
